Published values of several laboratories.
Protocols differ between the studies behind these lines. ± marks the error that the study gave. In brackets after ≈: the same amount, converted by molar mass.

Compound	target or system	test	system	setting	scale	measurement	value
COc1cc(CCC(C)=O)ccc1O	mouse mAb 1-D6	antibody binding, indirect competitive ELISA		with: coating antigen 2-OVA		IC50	2.77 µg/mL (≈ 14.3 µM)
N#Cc1nc(N2CCOCC2)nc(N(Cc2ccc(F)cc2)CC2CCCNC2)n1 (stereo not drawn)			female CD-1 mice	intraperitoneal, 10 mg/kg, 0.5 h		brain concentration	36.1 ng/g
COc1cc(C(=O)COC(=O)CCCN)ccc1O		pump-probe transient absorption	water			triplet lifetime	0.77 ns
CC(C)C[C@H](NC(=O)[C@H](CCCCN)NC(=O)CNC(=O)[C@H](CC(C)C)NC(=O)[C@@H](NC(=O)[C@@H]1CSSC[C@H](N)C(=O)N[C@@H](CO)C(=O)N[C@@H](CC(N)=O)C(=O)N[C@@H](CC(C)C)C(=O)N[C@@H](CO)C(=O)N[C@@H]([C@@H](C)O)C(=O)N1)C(C)C)C(=O)N[C@@H](CO)C(=O)N[C@@H](CCC(N)=O)C(=O)N[C@@H](CCC(=O)O)C(=O)N[C@@H](CC(C)C)C(=O)N[C@@H](Cc1c[nH]cn1)C(=O)N[C@@H](CCCCN)C(=O)N[C@@H](CC(C)C)C(=O)N[C@@H](CCC(N)=O)C(=O)N[C@H](C(=O)N[C@@H](Cc1ccc(O)cc1)C(=O)N1CCC[C@H]1C(=O)N[C@@H](CCCNC(=N)N)C(=O)N[C@H](C(=O)N[C@@H](CC(N)=O)C(=O)N[C@H](C(=O)NCC(=O)N[C@@H](CO)C(=O)NCC(=O)N[C@H](C(=O)N1CCC[C@H]1C(N)=O)[C@@H](C)O)[C@@H](C)O)[C@@H](C)O)[C@@H](C)O		ELISA	hairless male Sprague-Dawley rat, serum	intravenous, 3 µg		AUC	6.48 ± 2.18 ng·h/mL
[11CH3]c1ccc2nc(C3CCC3)n(-c3ccc4[nH]ncc4c3)c2n1		extrapolated from mouse biodistribution	human male, gallbladder wall			absorbed dose	4 µSv/MBq
COCC1CN(C2CCN(c3cc(OC)c(Nc4ncc(Br)c(Nc5ccc6c(c5P(C)(C)=O)OCCO6)n4)cc3C)CC2)C1			human	oral, 10 to 240 mg once daily, safety set, all grades		patients with elevated serum creatinine	22.2%
COC(=O)C(c1ccccc1Cl)N1CCC(SCC(=O)c2cccc(OC)c2)C(=CC(=O)O)C1 (mixture of isomers)		HPLC-MS/MS	feline EDTA plasma	100 ng/mL, 6 h, 4 °C, storage stability		deviation from nominal	-15%
CC12CC(c3ccc(C(O)CO)cc3)C3=C4CCC(=O)C=C4CCC3C1CCC2(O)C(F)(F)C(F)(F)F (stereo not drawn)			human liver microsomes	100 % absorption assumed		maximal oral bioavailability	68%
CN1CCC[C@]1(C)/C=C/S(=O)(=O)NC(=O)Nc1c2c(cc3c1CCC3)CCC2			human, plasma	oral, 250 mg, single dose, healthy volunteers		Cmax	30400 ng/mL
NC12CNCCNCC(NCc3ccc(CNC(=O)CCCC(=O)NCc4ccc(-c5nncnn5)cc4)cc3)(CNCCNC1)CNCCNC2.[64Cu+2]		OLINDA dosimetry	lower large intestine wall	pretargeting, 120-h interval		mean absorbed dose	0.04 rad/mCi
CCCC[C@@H]1NC(=O)[C@@H](NC(=O)[C@H](CCC(=O)O)NC(=O)CNC(=O)CN2CCN(CC(=O)O)CCN(CC(=O)O)CCN(CC(=O)O)CC2)CCCCNC(=O)C[C@@H](C(N)=O)NC(=O)[C@H](C(C)C)NC(=O)[C@@H]2CCCN2C(=O)[C@H](CCCNC(=N)N)NC(=O)CNC(=O)[C@H](Cc2c[nH]c3ccccc23)NC(=O)[C@H](CCCNC(=N)N)NC(=O)[C@@H](Cc2ccccc2)NC(=O)[C@H](Cc2c[nH]cn2)NC(=O)[C@H](CCC(=O)O)NC1=O [gallium-67 labelled]			normal C57 mice	intravenous, 0.037 MBq, 4 h		urine excretion	88.2 ± 1.22%
Oc1ccc2ccccc2c1/N=N/c1ccccc1			extracted rat blood QC samples	0.5 µg/L, 12 h, room temperature, short-term stability		measured concentration	0.521 µg/L
O=C(NCCCN(CCCCN(CCCNC(=O)c1cccc(=O)n1[O-])C(=O)c1cccc(=O)n1[O-])C(=O)c1cccc(=O)n1[O-])c1cccc(=O)n1[O-].[89Zr+4]		radio-TLC	PBS	7 d, pH 7.4, 37 °C, with: Co^2+ 10-fold excess		intact complex	98.9 ± 1.6%
CC(=O)N[C@H](CSSC[C@H](N)C(=O)O)C(=O)N[C@H](C)C(=O)N[C@H](CCCNC(=N)N)C(=O)N[C@H](CCCNC(=N)N)C(=O)N[C@H](CCCNC(=N)N)C(=O)N[C@H](C)C(=O)N[C@H](CCCNC(=N)N)C(N)=O			male human, plasma	intravenous, 0.5 mg, single dose, healthy volunteers		AUC(0-inf)	93.6 ng·h/mL
CCOc1ccc2c(c1)C(C)=CC(C)(C)N2c1cc(OCC)cc2c1NC(C)(C)C=C2C		LC-MS/MS	piglets, subcutaneous fat	oral in feed, 50 mg/kg feed ethoxyquin, 42 days		tissue residue	863 ± 392 ng/g
CC(=O)N([O-])CCCCCNC(=O)CCC(=O)N([O-])CCCCCNC(=O)CCC(=O)N([O-])CCCCCN.[89Zr+4]		radio-iTLC	aqueous buffer	initial, pH 8.0, 37 °C, EDTA challenge, with: 100-fold excess EDTA		intact complex	98.1 ± 0.2%
CCN1/C(=C/C=C2\CCCC(/C=C/C3=[N+](CC)c4ccccc4C3(C)C)=C2NCCCCCCCCN2CCC(Nc3nc4ccccc4n3Cc3ccc(F)cc3)CC2)C(C)(C)c2ccccc21		TEM	saline	10 µM, main population		aggregate particle size	~300 nm
CC(=O)N[C@H](C)c1cc(Cl)ccc1Cn1c(=S)[nH]c(=O)c2[nH]ccc21			Sprague-Dawley rat, male, plasma	oral, 125 mg/kg/day	relative to: rat over human 5 mg	exposure ratio	2.8
C#CCOc1ccc(/C=C2\SC(=O)N(CC(=O)NCc3ccccc3)C2=O)cc1		inverse Kirkwood-Buff integrals	binary solvent mixture	298.15 K, mole fraction x1 0.60		Kirkwood-Buff integral G1,3	-260 cm³/mol
OC[C@H]1c2[nH]cnc2[C@H](O)[C@@H](O)[C@@H]1O						pKa of conjugate acid	6
C=CC(=O)Nc1cc(Nc2nccc(-c3cn(C4CC4)c4ccccc34)n2)c(OC)cc1N(C)CCNC			healthy Chinese male human, plasma	oral, 110 mg almonertinib, metabolite, [14C] single dose		CL/F	99.1 ± 8.92 L/h
Br.Br.Br.O=c1c(O)cccn1CCN1CCN(CCn2cccc(O)c2=O)CCN(CCn2cccc(O)c2=O)CC1		potentiometric titration	hydroxypyridinone group	pKa3		pKa	7.5
COCCN(CC(N)=O)C(=O)CN(CCOC)C(=O)CN(CCOC)C(=O)CN(CCC(=O)O)C(=O)CN(CCOC)C(=O)CN(CCOC)C(=O)CN(CCOC)C(=O)CN(CCCCN)C(=O)CN(CCOC)C(=O)CN(CCOC)C(=O)CN(CCOC)C(=O)CN(CCOC)C(=O)CN(CCOC)C(=O)CN(CCOC)C(=O)C(Cc1ccccc1)NC(C)=O (stereo not drawn)		potentiometric titration with KOH	100 x 1 mM KCl			pKa of NH2 group	9.8

Compound	target or system	test	system	setting	scale	measurement	value
Cn1c(=O)oc2ccc(-c3ccc(CC(C#N)NC(=O)C4CNCCCO4)c(F)c3)cc21 (stereo not drawn)		measured: alanine aminotransferase increased	human volunteers	oral, dose not given		treatment-emergent adverse event incidence	11.1%
CNC(=O)N[C@]1(C)CCC[C@@]2(C)C3CC[C@@]4(C)C[C@]3(CCC21)CC4=O (single isomer, unassigned)			rat plasma	400 ng/mL, 8 h, room temperature, short-term stability	relative to: nominal concentration	relative error	-7.2%
CCCCCCCCCCCC(=O)NCCC(=O)N[C@H](CCCNC(=N)N)C(=O)N[C@H](CCCNC(=N)N)C(=O)N[C@H](CCCNC(=N)N)C(=O)N[C@H](CCCNC(=N)N)C(=O)N[C@H](CCCNC(=N)N)C(=O)N[C@@H](CCCNC(=N)N)C(=O)N[C@@H](CCCNC(=N)N)C(=O)N[C@@H](CCCNC(=N)N)C(=O)N[C@@H](CCCNC(=N)N)C(=O)N[C@@H](CCCCNC(=S)Nc1ccc2c(c1)C(=O)OC21c2ccc(O)cc2Oc2cc(O)ccc21)C(N)=O	Jurkat	flow cytometry		10 µM, 6 h, loaded 10 min at 37 °C, then washed	relative to: 0 h, higher = more retained	retained fluorescence	~50%
CC(C)c1cnc(-c2cc(Cl)ccc2F)cc1Nc1ccncc1C(=O)NC(CO)CO			patients, phase I monotherapy	oral, dose not given, grade 3		patients with anaemia	9.5%
CC1(c2ccc([C@H]3C[C@@]4(C)[C@@H](CC[C@@]4(O)C(F)(F)C(F)(F)F)[C@@H]4CCC5=CC(=O)CCC5=C43)cc2)COC1			human liver microsomes	100 % absorption assumed		maximal oral bioavailability	8%
CCCCC/C=C/C=C/C(=O)NCC(C)C			processed rat plasma	4000 ng/mL, 4 h, 20 °C, autosampler stability high QC	relative to: nominal concentration	relative error	2.42%
CC(NC(=O)OC1OC(C(=O)O)C(O)C(O)C1O)c1cc(Cl)ccc1Cn1c(=S)[nH]c(=O)c2[nH]ccc21 (stereo not drawn)			Sprague-Dawley rat, male, plasma	oral, 125 mg/kg/day	relative to: rat over human 10 mg	exposure ratio	2.6
[64Cu+2].c1ccc(CNCc2ccc(CN3CCCN4CCNCCCN(CC4)CC3)cc2)nc1	CXCR4 (human)		NOD/SCID mice, U87 xenografts, small intestine	480 min post-injection		tissue uptake	3.62 ± 0.63 %ID/g
COc1cccc(C=NCCCN(C)CCN(C)CCCN=Cc2cccc(OC)c2[O-])c1[O-].[67Ga+3]			male rat, heart	iv, 120 min		uptake	2 %ID/organ
CCCC[C@H](NC(=O)CNC(=O)CNC(=O)CN1CCN(CC(=O)O)CCN(CC(=O)O)CC1)C(=O)N[C@H]1CC(=O)NCCCC[C@@H](C(N)=O)NC(=O)[C@H](Cc2c[nH]c3ccccc23)NC(=O)[C@H](CCCNC(=N)N)NC(=O)[C@@H](Cc2ccccc2)NC(=O)[C@H](Cc2c[nH]cn2)NC1=O [copper-64 labelled]			female C57 mouse, B16/F1 melanoma	intravenous, 0.037 MBq, 4 h	relative to: tumour over lung	uptake ratio	17.9
CC1(C)C(=CC=C(C=CC2=[N+](CCC[N+](C)(C)C)c3ccc(S(=O)(=O)[O-])cc3C2(C)C)CCC(=O)[O-])N(CCC[N+](C)(C)C)c2ccc(S(=O)(=O)[O-])cc21			100% serum	pH 7.4		extinction coefficient	272000 M⁻¹ cm⁻¹
CC[C@H](C)[C@@H]1NC(=O)[C@@](C)(NC(=O)[C@H](CCCNC(=N)N)NC(=O)[C@H](CC(C)C)NC(=O)[C@]2(C)CCCC=CCCC[C@](C)(NC(C)=O)C(=O)N[C@@H](CC(C)C)C(=O)N[C@@H](CCC(N)=O)C(=O)N2)CCCC=CCCC[C@@](C)(C(=O)N[C@@H](CC(C)C)C(=O)N[C@@H](Cc2ccc3ccccc3c2)C(=O)NCCC(=O)NCCC(N)=O)NC(=O)[C@H](CCCNC(=N)N)NC(=O)[C@H](CCC(N)=O)NC1=O			BALB/c mice	intravenous, 30 mg/kg		terminal half-life	7.03 h
CCCCC/C=C/C(=O)CCc1ccc(O)c(OC)c1	mouse mAb 1-D6	antibody binding, indirect competitive ELISA		with: coating antigen 2-OVA		IC50	1.9 µg/mL (≈ 6.87 µM)
NS(=O)(=O)Nc1ncnc(OCCOc2ncc(Br)cn2)c1-c1ccc(Br)cc1		metabolite formation	male Sprague-Dawley rat, liver microsomes	50 mg/kg daily for 4 weeks		Vmax	709 ± 67 pmol/min/mg
CC(C)(O)c1ncc([S@](N)(=O)=NC(=O)Nc2c3c(cc4c2CCC4)CCC3)s1			human, plasma	oral, 30 mg, single dose, fasted, healthy volunteers		AUC(0-inf)	23800 ng·h/mL
Cc1ccc(-c2ccc(-c3cc4sccc4o3)cn2)nc1			benzene	with: quinine bisulfate reference		fluorescence quantum yield	0.59
COc1cc2c(cc1OC)CN(CCCCn1ccc3cc(OCC[18F])ccc31)C2			ICR mice, male, small intestine	intravenous, 15 min		uptake	12.4 ± 0.25 %ID/organ
COc1ccc(OC)c(C(=Cc2ccc(O)c(OC)c2)C(=O)NCCc2ccc(O)cc2)c1			KM mice, plasma	oral, 50 mg/kg		Tmax, second peak	3 h
[11CH3]N1CCN(CCCOc2ccc(=O)n(-c3ccc(Cl)c(Cl)c3)n2)CC1		radiotracer	mouse BALB/c male, brain, heart, lung, kidney	intravenous		Tmax	5 min
CC(C)[C@H](NC(=O)[C@@H]1CCCN1C(=O)[C@H](CCCNC(=N)N)NC(=O)[C@H](CS)NC(=O)[C@H](Cc1c[nH]c2ccccc12)NC(=O)[C@H](CCCNC(=N)N)NC(=O)[C@@H](Cc1ccccc1)NC(=O)[C@H](Cc1c[nH]cn1)NC(=O)[C@H](CCC(=O)O)NC(=O)[C@H](CS)NC(=O)[C@H](CS)NC(=O)CNC(=O)[C@@H]1CC(=O)N[C@@H](CCCNC(=N)N)C(=O)NCC(=O)N[C@@H](CC(=O)O)C(=O)N[C@H](Cc2ccc(O)cc2)C(=O)N1)C(N)=O [technetium-99m labelled]			C57 mice B16/F1 melanoma female	iv, 2 h, with: NDP-MSH blockade	relative to: tumour over lung	tumour-to-tissue ratio	0.9
c1ccc(CN2CCOCCOCCN(CCCCCCCCCCCCCCN3CCOCCOCCN(CCCCCCCCCCCCCCN4CCOCCOCCN(Cc5ccccc5)CCOCCOCC4)CCOCCOCC3)CCOCCOCC2)cc1		dynamic light scattering	LB Miller medium	7 µM		aggregate size	180 nm
Cc1ccc(OCC(=O)N(Cc2cccs2)c2ccn[nH]2)cc1			female Sprague-Dawley rat, plasma	oral, 30 mg/kg, single dose		bioavailability	0.32%

Excerpt of the above:
Compound	target or system	test	system	setting	scale	measurement	value
COc1cccc(C=NCCCN(C)CCN(C)CCCN=Cc2cccc(OC)c2[O-])c1[O-].[67Ga+3]			male rat, heart	iv, 120 min		uptake	2 %ID/organ
CCCCC/C=C/C(=O)CCc1ccc(O)c(OC)c1	mouse mAb 1-D6	antibody binding, indirect competitive ELISA		with: coating antigen 2-OVA		IC50	1.9 µg/mL (≈ 6.87 µM)
[11CH3]N1CCN(CCCOc2ccc(=O)n(-c3ccc(Cl)c(Cl)c3)n2)CC1		radiotracer	mouse BALB/c male, brain, heart, lung, kidney	intravenous		Tmax	5 min
Cc1ccc(OCC(=O)N(Cc2cccs2)c2ccn[nH]2)cc1			female Sprague-Dawley rat, plasma	oral, 30 mg/kg, single dose		bioavailability	0.32%
